Published values of several laboratories.
Every numbered part comes from another study and shows a few of its results, in no order. Positions count from the first letter of the parent shown.

Sample 1 — technique: RNA Bind-n-Seq; molecule type: RNA; sample: in vitro; tested at: 1 µM; setting: whole 134-nt RNA, ends assumed; added: 150 mM KCl; baseline: input library; direction: higher = stronger binding; endpoint: log2 enrichment
Target: Ras GTPase-activating protein-binding protein 1, RRM domain (G3BP1, Homo sapiens, UniProt Q13283)
UniProt Q13283, sequence (whole entry, looked up): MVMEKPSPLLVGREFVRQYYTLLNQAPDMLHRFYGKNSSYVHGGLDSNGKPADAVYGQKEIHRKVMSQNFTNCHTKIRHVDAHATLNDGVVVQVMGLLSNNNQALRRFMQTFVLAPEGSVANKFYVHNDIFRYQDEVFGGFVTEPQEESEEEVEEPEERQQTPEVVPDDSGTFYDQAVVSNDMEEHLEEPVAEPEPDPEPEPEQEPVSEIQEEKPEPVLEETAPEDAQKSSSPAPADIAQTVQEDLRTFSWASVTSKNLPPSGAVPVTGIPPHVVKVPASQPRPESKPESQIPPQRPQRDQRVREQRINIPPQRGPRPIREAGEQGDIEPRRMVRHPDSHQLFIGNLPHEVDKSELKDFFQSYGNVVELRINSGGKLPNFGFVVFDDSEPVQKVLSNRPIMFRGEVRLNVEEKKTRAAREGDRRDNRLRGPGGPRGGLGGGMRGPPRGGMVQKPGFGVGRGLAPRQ
Shared flanks, not repeated: GGGAGUUCUACAGUCCGACGAUC … UGGAAUUCUCGGGUGUCAAGG
CCUGUGCUACACAUCGUAUGUACCGAAUCAAACCCCCCCAAAUUUUUUUAAACCCCCAAAAAAGUAUUAUGUUACGCCGUUCGGAUCUGC: -0.704
UUCCGCCUCUUUCCGGAGUACAAGAACAACAAACUUUUCCUGACCGGGGAGAGCUAUGCUGGCAUCUACAUCCCCACCCUGGCCGUGCUG: 0.2
UGGCCCUGGUGGCAUGCGGGGAGGAAGAGGUGGCCUCAUGGAACGUGGUGGUCCCGGUGGAAUGUUCAGAGGUGGCCGUGGUGGAGACAG: 1.09
AGUCCUGUGCUACACAUCGUAUGUACCGAAUCGGAAAAAGGAAAAAGGAAAAAGGGGAAAGUAUUAUGUUACGCCGUUCGGAUCUGCACU: -0.0128
AAGUCCUGUGCUACACAUCGUAUGUACCGAAUCGGCCCCGGGCCCCGGGGCCCCGGGAAAGUAUUAUGUUACGCCGUUCGGAUCUGCACU: -0.659
GUCCUGUGCUACACAUCGUAUGUACCGAAUCGGGGUUUUUGGGGUUUGGGGAAAGGGGAAAGUAUUAUGUUACGCCGUUCGGAUCUGCAC: 1.85
UCCUGUGCUACACAUCGUAUGUACCGAAUCGGCCCCCCCGGCCCCCCCGGCCCCCCCGGGAAAGUAUUAUGUUACGCCGUUCGGAUCUGC: -1.01

Sample 2 — technique: RNA Bind-n-Seq; molecule type: RNA; sample: in vitro; tested at: 100 nM; baseline: input RNA pool; direction: higher = stronger binding; endpoint: bound/input enrichment
Target: RING finger protein unkempt homolog, zinc fingers 1-6, SBP tag (UNK, Homo sapiens, UniProt Q9C0B0, residues 30-357)
UniProt Q9C0B0, sequence (30-357, looked up): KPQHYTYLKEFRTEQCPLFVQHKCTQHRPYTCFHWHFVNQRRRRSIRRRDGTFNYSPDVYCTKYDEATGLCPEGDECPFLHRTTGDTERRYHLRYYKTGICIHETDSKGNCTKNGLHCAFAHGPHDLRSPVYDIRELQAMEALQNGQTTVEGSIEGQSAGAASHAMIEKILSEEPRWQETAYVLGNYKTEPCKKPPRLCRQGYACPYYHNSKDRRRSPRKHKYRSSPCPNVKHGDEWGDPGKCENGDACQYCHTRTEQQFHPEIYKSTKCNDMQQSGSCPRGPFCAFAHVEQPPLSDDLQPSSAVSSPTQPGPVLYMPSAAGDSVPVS
Setting: RNA with constant flanks, vertebrate orthologous sites, ends assumed
Shared flanks, not repeated: GGGAGUUCUACAGUCCGACGAUC … CAACAGAGGAUUGAGCAUCA
GGGACGCUUUGAUGUAAAGAUUGAAGUUAAGAGCUGAUCACAAGCACAAAUCUUUCCCACUAGCCAUUUAAAGAGUUAAGAAAAAGAUACAAAAAACCUACUAGUCUUGAACAAACUGUC: 1.05 ratio
GUUGUGACCCAUUCAACAUCCAUAAGAAGCUGGCCAAAAAAAACCUGCACGUCAUUGACUUGGAUGAUGCCACUUUUCUGAGUGCAAAAUUCGGAAGGCAGCUGGUGCCUGGUUGGAAGC: 0.361 ratio
AUCCCUCAGUGACAGUAUGCCUUCUGUAGCAGAUUCUCACUCUAGUCAUUUUUCUGAAUUUAGUUGUUCUGACCUAGAAAGCAUGAAAACUUCUUGUAGUCAUGGUUCCAGUGAUUAUCA: 1.46 ratio
AGGGAUGACCCCCAAUCCCACCUCUGUUUAUUCUGUAAACUACAACCUGUAAAUAACGUUUAGCAUUCCUAUUGUAACAAAAUUAAUUUUUAUGAAAUAAAUUAUAUUUCCUAGUCUAAU: 1.5 ratio
ACACUUACAUUGUGGCAAAUAGUCAACAUGGAAGUAGACCGGCUCUGCUGAUUUGAAAUUUAGAUUUUUUUAAUUAUGUACUGGGGACAGGUUUUUGUCGCUUUACAUUGCUUCCUAGUU: 4.52 ratio
AGUUUGUAUGUACAUUAUUCACAUUCCUCUCUGUUGUGUUUGGGGGAAAAAAAAGACAUUUUAGCCUUUUUUAAGGUUAUUGAUUUAAUUUCAUGUUAUUUGGUUGCAUGAAGUUGCCCU: 0.417 ratio

Sample 3 — technique: universal PBM; molecule type: double-stranded DNA, one strand shown; sample: in vitro; tested at: not given; direction: higher = stronger binding; endpoint: E-score
Target: Sal-like protein 4, full length isoform B (SALL4, Homo sapiens, UniProt Q9UJQ4-2, residues 1-616)
Setting: 8-mer, flanks averaged, mean of replicates
Construct (chain): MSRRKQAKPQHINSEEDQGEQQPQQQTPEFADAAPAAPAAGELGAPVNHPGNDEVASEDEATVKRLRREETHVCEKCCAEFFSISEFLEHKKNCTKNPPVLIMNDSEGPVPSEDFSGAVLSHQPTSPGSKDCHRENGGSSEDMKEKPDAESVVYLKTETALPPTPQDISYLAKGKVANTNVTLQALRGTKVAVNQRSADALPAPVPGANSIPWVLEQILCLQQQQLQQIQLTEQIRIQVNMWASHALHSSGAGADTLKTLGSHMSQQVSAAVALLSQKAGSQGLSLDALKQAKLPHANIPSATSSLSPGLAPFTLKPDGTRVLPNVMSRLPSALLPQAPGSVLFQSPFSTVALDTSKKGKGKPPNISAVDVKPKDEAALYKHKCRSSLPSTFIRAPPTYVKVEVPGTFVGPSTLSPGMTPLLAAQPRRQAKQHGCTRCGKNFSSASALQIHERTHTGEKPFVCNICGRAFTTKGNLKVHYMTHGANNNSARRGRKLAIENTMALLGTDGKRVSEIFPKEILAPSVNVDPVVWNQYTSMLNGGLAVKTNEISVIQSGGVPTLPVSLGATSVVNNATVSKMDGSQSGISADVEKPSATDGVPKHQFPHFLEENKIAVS
TCGGTAGA: 0.0738
ATGGCCTC: -0.183
CACACGTC: 0.00074
GAAAAGCC: -0.188
CAAACGCA: -0.001
TGGTCTAA: -0.0406
AGCGCACA: -0.151
CGGATAAC: -0.122
TAACCGTA: 0.124
ACTACTAC: 0.114
GGTCTTCA: -0.116
AATGCTCC: -0.194
GGACCTCC: -0.324

Sample 4 — technique: DHFR PCA, deep sequencing; sample: yeast; added: (+)-ABA 0.11 µM; baseline: wild-type fitted maximum; direction: higher = stronger binding; endpoint: relative binding score
Target: ABI1, truncated, D143A, DHFR fusion (Arabidopsis thaliana)
Setting: methotrexate growth selection, single substitutions
Starting sequence: PYL1, truncated, DHFR fusion (Arabidopsis thaliana); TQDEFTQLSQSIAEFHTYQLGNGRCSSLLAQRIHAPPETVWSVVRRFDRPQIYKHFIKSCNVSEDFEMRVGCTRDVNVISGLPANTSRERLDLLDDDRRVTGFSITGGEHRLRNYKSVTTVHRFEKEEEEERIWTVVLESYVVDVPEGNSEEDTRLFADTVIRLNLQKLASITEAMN
V100G: -2.95%
H55T: 28.2%
F5A: 11.9%
N77P: 4.06%
I57S: 4.32%
S171F: 8.22%
M68W: -4.24%
F157K: 0.496%
E151P: 43.1%

Sample 5 — technique: aptamer microarray, sandwich; molecule type: DNA with 2'F-ANA; sample: in vitro; tested at: 200 nM; added: Cy3 exosite-II aptamer, 400 nM; direction: higher = stronger binding; endpoint: mean fluorescence intensity; oligonucleotide: GGTTGGTGTGGTTGG
Target: Prothrombin, mature alpha-thrombin (F2, Homo sapiens, UniProt P00734)
Setting: whole 15-mer aptamer, many near background
2'F-ANA at 5 6 15: 68.9 a.u.
2'F-ANA at 2 5 6 7 9 10 11 12 15: 55.1 a.u.
2'F-ANA at 4 6 8 9 11 12 13 15: 273 a.u.
2'F-ANA at 1 2 3 4 8 9 11 13: 124 a.u.
2'F-ANA at 1 4 6 7 8 11: 112 a.u.
2'F-ANA at 1 7 11 12 13: 284 a.u.
2'F-ANA at 6 7 8 10 11 12 15: 168 a.u.
2'F-ANA at 3 8 12 14: 729 a.u.
2'F-ANA at 1 2 6 8 9 12 13 15: 251 a.u.
2'F-ANA at 1 2 5 8 10 14: 52.2 a.u.
2'F-ANA at 1 2 3 4 10 11 13 14 15: 51.7 a.u.

Sample 6 — technique: EMSA with sequencing; molecule type: double-stranded DNA, one strand shown; sample: in vitro; tested at: 10 and 20 nM; baseline: negative control set to 0; direction: higher = stronger binding; endpoint: normalised bound fraction
Target: Hepatocyte nuclear factor 3-alpha (Foxa1, Mus musculus, UniProt P35582, residues 1-468, full length assumed)
Setting: whole designed probe, mean of two concentrations, ends assumed
Shared flanks, not repeated: GTGAGCGGTGCCCATTGATGGGGAAC … TTTCACTGGGATCGTGGGGAC
Construct (chain): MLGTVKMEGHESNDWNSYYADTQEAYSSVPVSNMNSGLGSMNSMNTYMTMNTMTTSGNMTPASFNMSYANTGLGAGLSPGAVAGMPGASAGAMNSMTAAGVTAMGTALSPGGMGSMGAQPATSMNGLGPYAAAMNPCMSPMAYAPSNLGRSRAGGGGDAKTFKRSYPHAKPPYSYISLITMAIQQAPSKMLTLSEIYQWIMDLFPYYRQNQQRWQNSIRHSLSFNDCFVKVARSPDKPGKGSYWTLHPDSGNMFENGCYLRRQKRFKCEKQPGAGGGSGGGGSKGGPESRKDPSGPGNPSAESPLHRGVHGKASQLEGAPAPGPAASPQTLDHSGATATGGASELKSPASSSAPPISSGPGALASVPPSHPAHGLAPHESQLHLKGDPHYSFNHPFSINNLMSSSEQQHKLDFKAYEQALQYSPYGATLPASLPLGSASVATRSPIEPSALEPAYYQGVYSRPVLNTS
TGAAGTGGGAACCTGAGGGTCATCTGAGAATTTTCCCTACCCACCTGAATAGATTTCTAAAATCACCTTTCAGTTGCTTTTGCTGTCTTTCTAAGTAAACAAAGATATCATCTCCAAATAATAATTAATTGAACTGCTTTTCAATTGTATTCATTAAAATAATTATCTTTTTCTGGCTTATATGAAGTATTTC: 0.479 ratio
AGATTACAAGGTCCTAGAAATTTAACATGCAAAATCTGGAGAAGATAGAGAGTAGGGTGGGGTTGTTGAAAGGTTTTTAGTAGGGTTTTCCAAAGTAAACATAGTCAGGTTATTTTAAAAAATAAAATATAACTTGTTAGCTTGAAAGTAGGAGAAAAAAATTTAAAAAAATAAAATTTCAGTGTTAGATATA: 0.414 ratio
TGAGACACCAAGCATAGCCCAGCACTTAATTTTTAAAAAGGCTTAAAGTGTCACATACAGAAGCTCATTAAGTTAACAAGTGTACAGATGCTTGTTTACTTATTACGCACAATCTTACGAGGCCACACAATCTGAGCGATGATTAGGAGCTCAAAGTTTAGATCCAATCTCAGGACAACATGAAATAAATGAC: 0.423 ratio
AATTACAAGTTCTATGACCTTATTGTAAGGTGTCTCAAACTTTTTTGAATTGGGTGTGTACATTTAGAGTAACCAAACTGAGTCAGTGCAAAGTCAACAGAGCTGGGCAGATAGCCGAGCCAGGAGAAATCTCAACTGGATGGTGCCAGAACTGGTAGGGGAAGCCTCTAGTACTGCTACCAAATATATTGTG: 0.262 ratio
CTTGATAAGATTGAGCTTCCAGCAGAATGTAAATGCATCTGCTAACAGCAACCAGGCTTTGTCCCAAAACAGTAGTGAATCAGAATCTGCACAGTAAATATTGCAGTTAATTTCCTCTCCTGTACTTATGACTCACAGGCCTTTCTTTACGTTCACAGTTTCATAGAAATTGGCAAATACTTCTTGACACTGA: 0.0884 ratio

Sample 7 — technique: RNAcompete; molecule type: RNA; sample: in vitro; tested at: 20 nM; setting: 7-mer, probes averaged, single round; baseline: mean of 7-mers; direction: higher = stronger binding; endpoint: 7-mer Z-score
Target: PABPC1L2, full length, GST fusion (mouse, UniProt A0ABA7IW68)
Residues (chain): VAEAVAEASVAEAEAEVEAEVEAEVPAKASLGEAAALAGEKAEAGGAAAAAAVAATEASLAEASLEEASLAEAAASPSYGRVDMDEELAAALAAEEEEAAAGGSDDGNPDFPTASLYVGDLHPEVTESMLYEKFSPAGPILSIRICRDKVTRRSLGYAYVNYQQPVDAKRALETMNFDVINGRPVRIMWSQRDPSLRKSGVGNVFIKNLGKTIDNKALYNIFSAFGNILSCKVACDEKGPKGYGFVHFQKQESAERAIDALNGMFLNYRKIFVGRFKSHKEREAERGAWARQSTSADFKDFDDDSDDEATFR
CGUCCGA: -0.378
AGAUCAA: 0.0768
ACAUUCA: 0.00617
AGUGUUC: -0.36
UGCAUUC: -0.251
ACUGUCU: -0.34
ACUAGUG: -0.224
UAGUGUA: -0.117
CCGACAC: -0.222
AAACCUA: 0.448
CAACCCC: -0.269

Sample 8 — technique: protein-binding microarray; molecule type: double-stranded DNA, one strand shown; sample: in vitro; tested at: 2540 nM top; setting: 60-bp whole probe; added: salmon DNA 0.4 mg/ml; baseline: random background probes; direction: higher = stronger binding; endpoint: fitted relative affinity; shared flanks, not repeated: GCCTAGCAC … GTCTTGATTCGCTTGACGCTGCTG
Target: Interferon regulatory factor 3, full length, phosphomimetic (IRF3, Homo sapiens, UniProt Q14653, residues 1-427, S386D/S396D/S398D/S402D/T404D/S405D)
UniProt Q14653, sequence (whole entry, unmodified, looked up): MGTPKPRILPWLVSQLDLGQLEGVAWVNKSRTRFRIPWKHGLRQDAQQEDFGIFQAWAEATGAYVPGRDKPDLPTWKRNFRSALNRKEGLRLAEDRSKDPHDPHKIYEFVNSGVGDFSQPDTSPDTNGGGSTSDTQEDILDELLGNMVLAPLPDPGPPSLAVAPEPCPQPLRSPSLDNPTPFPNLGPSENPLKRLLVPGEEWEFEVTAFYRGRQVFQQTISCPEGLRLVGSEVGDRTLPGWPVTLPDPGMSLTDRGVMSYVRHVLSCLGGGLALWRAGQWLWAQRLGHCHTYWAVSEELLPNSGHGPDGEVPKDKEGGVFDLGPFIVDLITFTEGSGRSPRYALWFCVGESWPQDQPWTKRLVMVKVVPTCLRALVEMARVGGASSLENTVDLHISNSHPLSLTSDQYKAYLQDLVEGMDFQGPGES
TCATCTTCATGTTTTTTACTGTGCTAG: 0.908 z-score
TCAGCTTTATGTGTAGGACTGTGCTAG: -0.0518 z-score
TCAGATATAGGATAACGAGCCGTGCTA: 0.0575 z-score
TTAGAACTGGGGTTTTGATTAGTGCTA: -0.51 z-score
TTAGATATCAGTCTCGACTAGTGCTAG: 0.941 z-score
TTAGGTATGGGGTTTCGGTTAGTGCTA: 2.45 z-score
CTGGTTTTTACTTTCTGAATGTGCTAG: 2.78 z-score
TGAGATTTCGGGTATCGATTAGTGCTA: 1.4 z-score

Excerpt of the above (sample 4):
V100G: -2.95%
H55T: 28.2%
F5A: 11.9%
N77P: 4.06%
I57S: 4.32%
